Experimental data gathered from unrelated publications.
Every numbered part comes from another study and shows a few of its results, in no order.

Series 1
Target: Ras GTPase-activating protein-binding protein 1, full length (G3BP1, Homo sapiens, UniProt Q13283)
Chain of UniProt Q13283 (whole entry, looked up): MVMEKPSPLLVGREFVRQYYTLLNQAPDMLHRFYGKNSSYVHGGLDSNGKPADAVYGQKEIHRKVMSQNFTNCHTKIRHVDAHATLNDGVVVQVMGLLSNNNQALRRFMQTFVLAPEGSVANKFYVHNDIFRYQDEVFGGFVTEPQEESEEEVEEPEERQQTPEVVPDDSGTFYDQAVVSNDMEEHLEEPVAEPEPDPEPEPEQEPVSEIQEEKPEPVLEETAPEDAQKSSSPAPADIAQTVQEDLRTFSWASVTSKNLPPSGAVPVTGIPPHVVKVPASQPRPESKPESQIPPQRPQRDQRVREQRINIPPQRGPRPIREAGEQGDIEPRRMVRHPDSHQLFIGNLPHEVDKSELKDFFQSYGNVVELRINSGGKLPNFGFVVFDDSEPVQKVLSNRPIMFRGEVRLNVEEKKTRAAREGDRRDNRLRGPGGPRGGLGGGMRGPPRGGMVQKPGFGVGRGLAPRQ
Method: RNA Bind-n-Seq
Form: RNA
Matrix: in vitro
Tested at: 200 nM
Notes: whole 134-nt RNA, ends assumed
With: 150 mM KCl
Relative to: input library
Direction: higher = stronger binding
Constant ends, left off below: GGGAGUUCUACAGUCCGACGAUC … UGGAAUUCUCGGGUGUCAAGG
`UUCCCACAGCCCAAAAAUCUUCUCAACAGUGUGAUUGGAAGAGCCCUCGGCAUCUCACAUGCAAAAGACAAACUAGUCUACGUGCACACA` gave a log2 enrichment of 0.174.
The log2 enrichment of `CCUGUGCUACACAUCGUAUGUACCGAAUCGGGGUUUUUUUGGGGAGGGGUUUUUUUGGGGAAAGUAUUAUGUUACGCCGUUCGGAUCUGC` is reported as 0.0876.
The log2 enrichment of `CUCAAGUCCUGUGCUACACAUCGUAUGUACCGAAUCGGAAAGGUUUGGAAAGGAAAGUAUUAUGUUACGCCGUUCGGAUCUGCACUUCCA` is reported as -0.577.
For `GCAGGAAGUAAAAACAAAUGGAAAUGCUUCGGAUAGUGGCAGGAAAGGGGGUUGCUAAGGAAAGGGUGGGAUGGGAGUGGGUAAAGAGUU`, the log2 enrichment was 0.749.
The log2 enrichment of `UUUUACAUUUAUACACAUGUAUUGGCUUCCUUUUACACUAUUAGGCGGUCAAGAAGCAGAUCGAGACGGCGGUCACAUUCUAAGUCUAGG` is reported as 0.335.
`GUCCUGUGCUACACAUCGUAUGUACCGAAUCGGGGAAAAAGGGGAAAAAGGAAAAAGGGAAAGUAUUAUGUUACGCCGUUCGGAUCUGCA` has a log2 enrichment of -0.342.

Series 2
Target: Protein C-ets-1 (ETS1, Homo sapiens, UniProt P14921, residues 1-441, K379A, full length assumed)
Chain of UniProt P14921 (whole entry, unmodified, looked up): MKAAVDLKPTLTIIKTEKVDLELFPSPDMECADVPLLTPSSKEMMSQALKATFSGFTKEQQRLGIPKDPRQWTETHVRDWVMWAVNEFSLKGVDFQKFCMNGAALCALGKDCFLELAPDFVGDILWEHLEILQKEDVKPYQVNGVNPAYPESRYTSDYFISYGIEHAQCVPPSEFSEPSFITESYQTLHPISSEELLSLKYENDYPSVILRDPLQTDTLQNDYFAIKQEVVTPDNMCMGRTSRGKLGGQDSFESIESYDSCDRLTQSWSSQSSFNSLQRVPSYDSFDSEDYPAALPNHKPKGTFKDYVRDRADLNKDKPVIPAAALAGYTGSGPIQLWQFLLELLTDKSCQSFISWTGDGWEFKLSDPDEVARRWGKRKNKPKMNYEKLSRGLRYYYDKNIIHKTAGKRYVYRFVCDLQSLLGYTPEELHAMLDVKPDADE
Method: protein-binding microarray
Form: double-stranded DNA, one strand shown
Matrix: in vitro
Tested at: not given
Notes: k-mer, scored over probes, only values ≥0.25
Direction: higher = stronger binding
The E-score of `CGGAAGAC` is reported as 0.272.
The E-score of `AAACCGGC` is reported as 0.325.
The E-score of `AAGCGCTT` is reported as 0.276.
`AACAATAA` gave an E-score of 0.264.

Series 3
Target: Centromere-binding protein 1, full length, His-tagged (CBF1, Saccharomyces cerevisiae, UniProt P17106, residues 1-351)
Chain of UniProt P17106 (whole entry, looked up): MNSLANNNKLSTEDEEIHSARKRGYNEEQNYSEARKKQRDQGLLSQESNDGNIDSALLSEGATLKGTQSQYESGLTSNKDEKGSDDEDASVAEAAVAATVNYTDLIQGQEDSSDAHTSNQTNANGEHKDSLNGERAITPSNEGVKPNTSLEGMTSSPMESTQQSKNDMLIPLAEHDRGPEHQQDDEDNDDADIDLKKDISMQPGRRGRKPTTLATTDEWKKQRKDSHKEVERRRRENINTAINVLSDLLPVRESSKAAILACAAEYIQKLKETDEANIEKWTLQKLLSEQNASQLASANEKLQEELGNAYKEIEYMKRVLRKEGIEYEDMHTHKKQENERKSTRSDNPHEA
Method: competition protein-binding microarray
Form: double-stranded DNA, one strand shown
Matrix: in vitro
Tested at: 2 µM
Notes: whole 60-bp probe, lowest competitor level
With: Pho4 competitor, 0.05 µM
Direction: higher = stronger binding
Constant ends, left off below: … GTCTTGATTCGCTTGACGCTGCTG
With `AGAATTGGAAACCATCACGTACTCCGCCACCAGCAA` the fluorescence intensity was 78.4 a.u.
For `GTTAATGATATGTTTCACGTGGTGAGATTTTTTTTG`, the fluorescence intensity was 1270 a.u.
For `TGCGCAACAACTTGTCACCGCACTTTATGTCTAGAA`, the fluorescence intensity was 75.1 a.u.
`CCAAGCAGCAGTTTACGCGTGTCCAAAAAATGCTGT` has a fluorescence intensity of 92 a.u.
The fluorescence intensity of `AAAGCGGTAATTTGTCACACGACTTCACATATCTAT` is reported as 145 a.u.

Other studies, line by line
The fold induction of `PhoQ, residues 284 288 289 292 302 303 SCEHLI` is reported as 16.8 (PhoP, residues 12 14 15 18 19 NMSFL (Escherichia coli, UniProt P23836); Sort-seq, refers to: YFP reporter; E. coli; PhoQ-PhoP variant library, with: 10 µM Mg2+; relative to: high Mg2+ state, higher = stronger signaling).

For quick reference, copied from above (series 3):
The fluorescence intensity of `AAAGCGGTAATTTGTCACACGACTTCACATATCTAT` is reported as 145 a.u.
`CCAAGCAGCAGTTTACGCGTGTCCAAAAAATGCTGT` has a fluorescence intensity of 92 a.u.
For `GTTAATGATATGTTTCACGTGGTGAGATTTTTTTTG`, the fluorescence intensity was 1270 a.u.
